Published values of several laboratories.
Parts stem from different laboratories: compare values within a part only. Positions count from the first letter of the parent shown.

Series 1
Target: ABI1, truncated, D143A, DHFR fusion (Arabidopsis thaliana, UniProt P49597)
Technique: DHFR PCA, dose-response
Sample: yeast
Notes: Hill fit, not affinity, not high confidence
Together with: (+)-ABA, dose series
Reading: lower = more sensitive
Starting sequence: PYL1, truncated, DHFR fusion (Arabidopsis thaliana, UniProt Q8VZS8); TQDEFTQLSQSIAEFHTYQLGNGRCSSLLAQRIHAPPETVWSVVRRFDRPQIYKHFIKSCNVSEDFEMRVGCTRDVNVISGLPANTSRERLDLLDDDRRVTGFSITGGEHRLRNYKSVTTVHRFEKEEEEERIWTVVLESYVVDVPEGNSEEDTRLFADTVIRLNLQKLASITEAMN
For `K54Y`, the ABA EC50 was 3.57 µM.
`N165M` gave an ABA EC50 of 0.405 µM.
`F56E` gave an ABA EC50 of 9.12 µM.
`H110S` gave an ABA EC50 of 273 µM.
`H16F` gave an ABA EC50 of 771 µM.
`R74C` gave an ABA EC50 of 0.193 µM.
For `S117M`, the ABA EC50 was 2460 µM.
The ABA EC50 of `S140R` is reported as 736 µM.

Series 2
Target: D(1A) dopamine receptor (DRD1, Homo sapiens, UniProt P21728)
Chain of UniProt P21728 (whole entry, looked up): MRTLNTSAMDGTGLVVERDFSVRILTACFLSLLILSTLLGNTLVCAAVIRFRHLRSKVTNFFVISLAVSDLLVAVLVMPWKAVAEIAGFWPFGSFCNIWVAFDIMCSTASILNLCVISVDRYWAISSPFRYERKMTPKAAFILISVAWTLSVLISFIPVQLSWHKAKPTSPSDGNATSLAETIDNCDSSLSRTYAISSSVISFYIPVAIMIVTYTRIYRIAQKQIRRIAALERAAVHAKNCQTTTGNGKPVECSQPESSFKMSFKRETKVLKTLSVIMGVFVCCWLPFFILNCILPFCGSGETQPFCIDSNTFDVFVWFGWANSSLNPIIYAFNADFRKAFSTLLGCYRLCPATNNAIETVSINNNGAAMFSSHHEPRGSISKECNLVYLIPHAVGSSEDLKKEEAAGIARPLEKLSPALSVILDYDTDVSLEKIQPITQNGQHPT
Read-out: binding
Technique: radioligand binding
Concentration: 10 µM
With O[C@]1(C(F)(F)F)CCCC[C@H]1Nc1ccc(F)cc1 the inhibition was 15.6%.
The inhibition of C[C@@]1(Cc2ccc(C#N)cc2)C(=O)N(c2cc(Cl)cc(Cl)c2)c2ncc(C(=O)NC3(c4nc(C5CCC5)no4)CC3)n21 is reported as 18.6%.
The inhibition of CC(=O)Nc1c(F)cc(C(=O)N[C@H]2CC[C@H](O)CC2)cc1O[C@@H](C)c1ccccc1 is reported as 4.11%.
With CC1=C(C#N)C(c2ccc3c(c2)c(NC(=O)c2ccccc2C)nn3C)C(C#N)=C(C)N1 the inhibition was -27.7%.
For Cc1c(N2CCCC2)nc2ccc(Br)cc2c1C(=O)NC[C@H](CCC(=O)O)c1ccccc1Cl, the inhibition was 13.8%.
The inhibition of CN1CCN(C(=O)C(C)(C)c2ccc(C(=O)Nc3cn4cc(-c5ccncc5)ccc4n3)cc2)CC1 is reported as 4.41%.
CN1C(=O)[C@@H](N2CCc3cn(Cc4ccccc4)nc3C2=O)COc2ccccc21 gave an inhibition of 18.8%.
For O=C(Nc1cccnn1)N1CC(CC=Cc2cncc(Oc3ccc(C(F)(F)F)cn3)n2)C1, the inhibition was 1.14%.
With CN(C)C(=O)Cn1cc(-c2nc([C@@](C)(c3ccc(-c4cnc(N)nc4)cc3)C3CC3)no2)cn1 the inhibition was 4.55%.
The inhibition of C[C@H](NC(=O)c1cnc2n1[C@](C)(Cc1ccc(C#N)cc1)C(=O)N2c1cc(Cl)c(F)c(Cl)c1)C(=O)NC1(c2ccccn2)CC1 is reported as 1.26%.
The inhibition of Cc1cc(C)c(-n2ccn3nc(-c4cccnc4)cc23)cc1NC(=O)c1cc(C#N)cc(S(F)(F)(F)(F)F)c1 is reported as 4.82%.
For O=C(O)c1cc(-c2ccc(C3CCNCC3)cc2)c2ccc(-c3ccc(C(F)(F)F)cc3)cc2c1, the inhibition was 71.4%.
For CC1=C(C#N)[C@@H](c2ccc3[nH]nc(C)c3c2)C(C#N)=C(c2ccc(Cl)cc2)N1, the inhibition was 6.7%.
With O=C1CCc2cc(Nc3cc(OC4CCOCC4)c([N+](=O)[O-])cc3Cl)ccc2N1 the inhibition was 7.4%.

Series 3
Target: Histone acetyltransferase KAT6A, winged helix 1, GST fusion (KAT6A, Homo sapiens, UniProt Q92794, residues 1-85)
Technique: protein binding microarray
Molecule type: double-stranded DNA, one strand shown
Sample: in vitro
Concentration: not given
Notes: 8-mer, flanks averaged, mean of 2 arrays, mostly near background
Relative to: not given
Reading: higher = stronger binding
Target sequence (chain): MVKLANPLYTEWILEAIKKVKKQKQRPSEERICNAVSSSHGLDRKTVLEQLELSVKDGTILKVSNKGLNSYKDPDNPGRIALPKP
`ACCGCTAA` has an E-score of 0.21.
For `GCGAAACA`, the E-score was 0.0787.
With `CCCGGCGC` the E-score was 0.463.
With `TCTCATCA` the E-score was -0.233.
For `CGGATCGC`, the E-score was 0.189.
The E-score of `TGATATAA` is reported as -0.0963.
`GAGAAGAA` has an E-score of -0.206.
`CAGTCACG` gave an E-score of 0.0758.

Series 4
Target: Protein-tyrosine kinase 2-beta (PTK2B, Homo sapiens, UniProt Q14289)
Chain of UniProt Q14289 (whole entry, looked up): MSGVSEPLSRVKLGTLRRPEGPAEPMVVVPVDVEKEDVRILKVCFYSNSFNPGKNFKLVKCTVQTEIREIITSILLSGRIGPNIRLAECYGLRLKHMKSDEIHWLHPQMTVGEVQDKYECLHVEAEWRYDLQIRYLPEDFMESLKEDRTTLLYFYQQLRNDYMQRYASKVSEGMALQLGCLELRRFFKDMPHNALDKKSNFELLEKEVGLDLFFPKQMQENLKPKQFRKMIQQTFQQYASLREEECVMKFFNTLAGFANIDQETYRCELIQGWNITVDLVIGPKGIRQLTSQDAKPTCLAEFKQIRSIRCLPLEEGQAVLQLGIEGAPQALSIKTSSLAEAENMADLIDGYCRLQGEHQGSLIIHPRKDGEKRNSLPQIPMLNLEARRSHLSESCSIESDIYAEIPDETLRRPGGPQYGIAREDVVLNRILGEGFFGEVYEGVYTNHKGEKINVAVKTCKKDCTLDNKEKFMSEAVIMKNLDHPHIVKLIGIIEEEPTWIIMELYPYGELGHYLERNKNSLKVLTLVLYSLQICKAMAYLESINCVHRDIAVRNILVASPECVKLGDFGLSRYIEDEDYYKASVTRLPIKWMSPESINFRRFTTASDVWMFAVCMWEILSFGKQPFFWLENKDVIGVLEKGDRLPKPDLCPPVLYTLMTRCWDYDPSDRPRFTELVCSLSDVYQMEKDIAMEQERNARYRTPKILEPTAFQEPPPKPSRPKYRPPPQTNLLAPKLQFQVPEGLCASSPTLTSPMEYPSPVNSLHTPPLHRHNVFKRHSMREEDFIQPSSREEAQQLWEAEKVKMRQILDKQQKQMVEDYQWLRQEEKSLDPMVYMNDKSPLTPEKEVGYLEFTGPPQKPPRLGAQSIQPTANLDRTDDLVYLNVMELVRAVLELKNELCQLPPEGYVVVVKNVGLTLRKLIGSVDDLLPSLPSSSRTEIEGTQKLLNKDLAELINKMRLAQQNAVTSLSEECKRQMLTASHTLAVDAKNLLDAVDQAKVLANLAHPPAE
Read-out: enzyme activity
Action: inhibitor
Concentration: 0.5 µM
Relative to: control
With O=C(Nc1cccc(Nc2cc(Nc3cccc(C(F)(F)F)c3)ncn2)c1)C1CC1 the remaining activity was 89.6%.
COc1ccc(OC)c2c(=S)c3ccccc3[nH]c12 has a remaining activity of 92.7%.
COc1cc2ncnc(Nc3ccc(Oc4ccccc4)cc3)c2cc1OC has a remaining activity of 89%.
With CCOC(=O)c1c(C)[nH]c(/C=C2\C(=O)Nc3ccccc32)c1C the remaining activity was 80.6%.
With O=c1c2ccccc2[nH]c(=S)n1CCN1CCC(=C(c2ccc(F)cc2)c2ccc(F)cc2)CC1 the remaining activity was 98.5%.
OCC(O)CCON=C1C(c2c(O)[nH]c3ccccc23)=Nc2ccccc21 (stereo not shown) has a remaining activity of 30.5%.
CO[C@H]1C[C@@H]2CC[C@@H](C)[C@@](O)(O2)C(=O)C(=O)N2CCCC[C@H]2C(=O)O[C@H]([C@H](C)C[C@@H]2CC[C@@H](O)[C@H](OC)C2)CC(=O)[C@H](C)/C=C(\C)[C@@H](O)[C@@H](OC)C(=O)[C@H](C)C[C@H](C)/C=C/C=C/C=C/1C has a remaining activity of 94.2%.
For Cn1sc(=O)n(Cc2ccccc2)c1=O, the remaining activity was 91%.
O=C(CCCc1ccc(-c2ccccc2F)cc1)Nc1ccc(O)cc1 has a remaining activity of 98.8%.
The remaining activity of N#CC(C#N)=C(N)/C(C#N)=C/c1ccc(O)cc1 is reported as 97.4%.
The remaining activity of Nc1[nH]nc2nc3ccccc3nc12 is reported as 92%.
For Cc1ccc(NC(=O)c2ccc(CN3CCN(C)CC3)cc2)cc1Nc1nc(-c2cccnc2)cs1, the remaining activity was 98.9%.
CNC(=O)c1cc(Oc2ccc(NC(=O)Nc3ccc(Cl)c(C(F)(F)F)c3)cc2)ccn1 has a remaining activity of 101%.

A few entries again (series 2):
With CN(C)C(=O)Cn1cc(-c2nc([C@@](C)(c3ccc(-c4cnc(N)nc4)cc3)C3CC3)no2)cn1 the inhibition was 4.55%.
The inhibition of C[C@H](NC(=O)c1cnc2n1[C@](C)(Cc1ccc(C#N)cc1)C(=O)N2c1cc(Cl)c(F)c(Cl)c1)C(=O)NC1(c2ccccn2)CC1 is reported as 1.26%.
The inhibition of Cc1cc(C)c(-n2ccn3nc(-c4cccnc4)cc23)cc1NC(=O)c1cc(C#N)cc(S(F)(F)(F)(F)F)c1 is reported as 4.82%.
For O=C(O)c1cc(-c2ccc(C3CCNCC3)cc2)c2ccc(-c3ccc(C(F)(F)F)cc3)cc2c1, the inhibition was 71.4%.
